Results gathered from unrelated publications.
Every numbered part comes from another study and shows a few of its results, in no order.

Sample 1
Target: Ras GTPase-activating protein-binding protein 1, C-terminal RGG region (G3BP1, Homo sapiens, UniProt Q13283)
Chain of UniProt Q13283 (whole entry, looked up): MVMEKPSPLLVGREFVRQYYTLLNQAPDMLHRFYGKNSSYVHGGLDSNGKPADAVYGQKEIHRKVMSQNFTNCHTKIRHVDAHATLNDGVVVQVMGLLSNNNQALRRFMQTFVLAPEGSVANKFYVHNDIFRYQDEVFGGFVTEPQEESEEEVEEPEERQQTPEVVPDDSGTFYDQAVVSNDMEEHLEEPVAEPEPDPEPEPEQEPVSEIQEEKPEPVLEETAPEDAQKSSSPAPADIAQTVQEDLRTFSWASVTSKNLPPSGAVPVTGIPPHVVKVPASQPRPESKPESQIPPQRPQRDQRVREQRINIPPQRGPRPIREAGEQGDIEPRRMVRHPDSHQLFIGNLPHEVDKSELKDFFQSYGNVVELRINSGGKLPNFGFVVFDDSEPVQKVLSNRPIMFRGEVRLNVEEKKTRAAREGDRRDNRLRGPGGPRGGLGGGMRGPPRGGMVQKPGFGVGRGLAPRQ
Method: RNA Bind-n-Seq
Molecule type: RNA
Medium: in vitro
Concentration: 1 µM
Setting: whole 134-nt RNA, ends assumed
With: 150 mM KCl
Reference: input library
Direction: higher = stronger binding
All sequences stand within: GGGAGUUCUACAGUCCGACGAUC … UGGAAUUCUCGGGUGUCAAGG
Sequence | log2 enrichment
AGUCCUGUGCUACACAUCGUAUGUACCGAAUCGGGUGGGAAAAAGGGUUUUUUUGGGAAAGUAUUAUGUUACGCCGUUCGGAUCUGCACU | 0.342
CAAGUCCUGUGCUACACAUCGUAUGUACCGAAUCGGUUUUGGUUUUGGGUUUUGGGAAAGUAUUAUGUUACGCCGUUCGGAUCUGCACUU | -1.66
UAGCCCUGGUGGCAUGCGGGGAGGAAGAGGUGGCCUCAUGGAUCGUGGUGGUCCCGGUGGAAUGUUCAGAGGUGGCCGUGGUGGAGACAG | 2.26
AAGUCCUGUGCUACACAUCGUAUGUACCGAAUCGGGAGGGUUUGGGAAAAAAAGGGAAAGUAUUAUGUUACGCCGUUCGGAUCUGCACUU | -0.0815
UCCCCAGGGCCUGGCCUACUCAAUCUCUCCCACCUCAUCCUCUGGCAUGGACGCAGUCAGGGAGUCUGCUCCAAGCAGACACUGGUGGUC | -0.991
UCCUGUGCUACACAUCGUAUGUACCGAAUCGGGGUUUUUGGGGUUUUUGGGGUUUGGGGAAAGUAUUAUGUUACGCCGUUCGGAUCUGCA | 1.79
UGGCCCUGGUGGCCUGCGGGGAGGAAGAGGUGGCCUCAUGGAUCGUGGUGGUCCCGGUGGAAUGUUCAGAGGUGGCCGUGGUGGAGACAG | 1.95

Sample 2
Target: Interferon regulatory factor 5, full length, phosphomimetic (IRF5, Homo sapiens, UniProt Q13568-2, residues 1-514, S451D/S453D/S456D/S462D)
Method: protein-binding microarray
Molecule type: double-stranded DNA, one strand shown
Medium: in vitro
Concentration: 940 nM top
Setting: 60-bp whole probe
With: salmon DNA 0.4 mg/ml
Reference: random background probes
Direction: higher = stronger binding
All sequences stand within: GCCTAGCAC … GTCTTGATTCGCTTGACGCTGCTG
Sequence | fitted relative affinity [z-score]
CTGCTGCAGGCAGCACGCTGGTGCTAG | -0.959
TTAGGTATCGGAATGGGTTAGTGCTAG | 4.48
TTAGGTTTCGGACTGGATTAGTGCTAG | 7.68
TCATTTCTAATTTACTTACTGTGCTAG | 0.932
TTAGCTTTCGGTTCCGGTTAGTGCTAG | 6.94
TTAGGTTTCCTACAGCTTTAGTGCTAG | 0.609
GACGGTATCGCCACTGGGGACGTGCTA | 1.97

Sample 3
Target: Phosphate system positive regulatory protein PHO4, full length, GST-tagged (PHO4, Saccharomyces cerevisiae, UniProt P07270, residues 1-312)
Method: competition protein-binding microarray
Molecule type: double-stranded DNA, one strand shown
Medium: in vitro
Concentration: 2 µM
Setting: whole 60-bp probe, lowest competitor level
With: Cbf1 competitor, 0.05 µM
Direction: higher = stronger binding
All sequences stand within: … GTCTTGATTCGCTTGACGCTGCTG
Construct (chain): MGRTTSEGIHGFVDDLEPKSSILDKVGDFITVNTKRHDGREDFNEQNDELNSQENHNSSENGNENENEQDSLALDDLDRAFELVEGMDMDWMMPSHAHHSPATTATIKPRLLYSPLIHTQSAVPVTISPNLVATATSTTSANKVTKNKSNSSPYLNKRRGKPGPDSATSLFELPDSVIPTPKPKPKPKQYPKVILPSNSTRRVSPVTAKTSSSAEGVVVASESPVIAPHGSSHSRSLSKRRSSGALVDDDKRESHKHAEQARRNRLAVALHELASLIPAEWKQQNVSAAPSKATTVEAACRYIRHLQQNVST
Sequence | fluorescence intensity [a.u.]
CTGTCCAGCGCAGACCACGTGGCCCTTCCTGGTGCT | 18800
TTGAACAACCATCCCAACGTGAAGAAGCCAAGAAGG | 7180
AAAGAGCATTCGAGTCACGTGTATACATTCAAGTGA | 14000
AGAGGCCCCAGGAGCAACGTGATGGTATAACTGCCC | 11600
CGGGGTTAAGTTTGACCCGTGGGTGGCTTGCAGCAG | 8540
TAAGGGCCAGGATGACAGGTGATGCTGCTTGCATTT | 4550
GATAACCTCCTTAGCACCGTGATTGTTTAATGTGTC | 6290

Other studies, line by line
Substance | target | assay | system | conditions | scale | quantity | value
PhoQ, residues 284 288 289 292 302 303 ASASEQ | PhoP, residues 12 14 15 18 19 NQAHL (Escherichia coli, UniProt P23836) | Sort-seq, item: YFP reporter | E. coli | PhoQ-PhoP variant library, with: 10 µM Mg2+ | reference: high Mg2+ state, higher = stronger signaling | fold induction | 1.68

For quick reference, copied from above (sample 2):
Sequence | fitted relative affinity [z-score]
TTAGGTTTCGGACTGGATTAGTGCTAG | 7.68
TCATTTCTAATTTACTTACTGTGCTAG | 0.932
TTAGGTATCGGAATGGGTTAGTGCTAG | 4.48
